Assay results pooled from the literature.
Each numbered part is a random draw from the data of one study; scales do not carry over between parts.
Sequence of UniProt P45985 (whole entry, looked up): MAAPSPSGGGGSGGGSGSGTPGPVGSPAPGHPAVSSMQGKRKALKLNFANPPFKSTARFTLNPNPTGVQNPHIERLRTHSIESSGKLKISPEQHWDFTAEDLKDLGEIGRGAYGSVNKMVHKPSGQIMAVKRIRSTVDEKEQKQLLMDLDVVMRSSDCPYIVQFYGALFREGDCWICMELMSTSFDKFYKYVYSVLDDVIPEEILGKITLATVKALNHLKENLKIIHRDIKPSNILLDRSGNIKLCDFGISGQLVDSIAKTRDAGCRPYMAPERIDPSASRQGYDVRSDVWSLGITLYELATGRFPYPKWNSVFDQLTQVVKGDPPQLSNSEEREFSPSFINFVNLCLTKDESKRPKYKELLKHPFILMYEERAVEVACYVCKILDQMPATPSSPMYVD
Sequence of UniProt Q9BYP7 (whole entry, looked up): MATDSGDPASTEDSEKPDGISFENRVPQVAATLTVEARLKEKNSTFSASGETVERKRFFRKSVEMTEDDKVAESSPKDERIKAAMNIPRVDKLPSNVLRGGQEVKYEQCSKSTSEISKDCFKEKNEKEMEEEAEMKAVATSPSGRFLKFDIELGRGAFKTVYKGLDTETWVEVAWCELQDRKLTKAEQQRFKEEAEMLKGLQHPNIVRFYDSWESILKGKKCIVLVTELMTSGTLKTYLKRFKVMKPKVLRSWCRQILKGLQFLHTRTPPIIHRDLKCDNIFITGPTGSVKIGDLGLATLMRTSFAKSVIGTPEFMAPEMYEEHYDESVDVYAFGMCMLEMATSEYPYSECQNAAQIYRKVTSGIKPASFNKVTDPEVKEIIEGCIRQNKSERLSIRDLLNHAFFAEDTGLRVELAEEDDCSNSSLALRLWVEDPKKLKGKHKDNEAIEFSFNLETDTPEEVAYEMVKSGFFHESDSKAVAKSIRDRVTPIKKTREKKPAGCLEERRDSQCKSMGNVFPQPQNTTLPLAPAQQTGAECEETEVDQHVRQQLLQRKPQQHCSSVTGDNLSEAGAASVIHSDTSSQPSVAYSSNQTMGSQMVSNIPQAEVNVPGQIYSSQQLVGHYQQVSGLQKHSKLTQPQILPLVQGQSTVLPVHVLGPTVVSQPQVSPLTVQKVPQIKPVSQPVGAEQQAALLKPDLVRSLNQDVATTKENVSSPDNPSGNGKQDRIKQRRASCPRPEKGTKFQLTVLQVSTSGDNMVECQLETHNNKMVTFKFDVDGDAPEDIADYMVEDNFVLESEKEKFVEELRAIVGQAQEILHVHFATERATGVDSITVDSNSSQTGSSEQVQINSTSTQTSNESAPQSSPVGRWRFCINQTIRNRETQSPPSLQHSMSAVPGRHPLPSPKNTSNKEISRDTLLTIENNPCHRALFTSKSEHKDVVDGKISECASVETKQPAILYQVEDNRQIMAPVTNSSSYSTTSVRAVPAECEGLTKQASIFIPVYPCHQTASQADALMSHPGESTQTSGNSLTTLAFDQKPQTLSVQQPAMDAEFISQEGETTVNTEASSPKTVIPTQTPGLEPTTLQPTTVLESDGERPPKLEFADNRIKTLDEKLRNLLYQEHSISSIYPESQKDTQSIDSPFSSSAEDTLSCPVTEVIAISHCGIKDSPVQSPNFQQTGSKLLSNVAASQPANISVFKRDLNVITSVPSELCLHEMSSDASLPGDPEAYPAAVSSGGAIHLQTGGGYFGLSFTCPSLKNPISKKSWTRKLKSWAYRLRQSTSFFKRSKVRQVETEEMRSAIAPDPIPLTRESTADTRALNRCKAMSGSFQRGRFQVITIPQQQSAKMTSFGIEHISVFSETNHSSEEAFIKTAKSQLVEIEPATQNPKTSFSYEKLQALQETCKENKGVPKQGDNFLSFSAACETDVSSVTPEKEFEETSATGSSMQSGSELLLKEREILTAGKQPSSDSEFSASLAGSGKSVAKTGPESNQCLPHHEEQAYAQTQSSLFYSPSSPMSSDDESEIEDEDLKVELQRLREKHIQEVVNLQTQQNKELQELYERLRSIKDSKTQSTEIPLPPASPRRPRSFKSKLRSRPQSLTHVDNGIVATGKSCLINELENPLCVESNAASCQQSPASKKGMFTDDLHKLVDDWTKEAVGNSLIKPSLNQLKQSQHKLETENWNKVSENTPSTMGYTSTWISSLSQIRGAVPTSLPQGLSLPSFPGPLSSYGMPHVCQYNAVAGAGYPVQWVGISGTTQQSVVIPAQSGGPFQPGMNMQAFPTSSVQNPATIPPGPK
Sequence of UniProt Q9NRP7 (whole entry, looked up): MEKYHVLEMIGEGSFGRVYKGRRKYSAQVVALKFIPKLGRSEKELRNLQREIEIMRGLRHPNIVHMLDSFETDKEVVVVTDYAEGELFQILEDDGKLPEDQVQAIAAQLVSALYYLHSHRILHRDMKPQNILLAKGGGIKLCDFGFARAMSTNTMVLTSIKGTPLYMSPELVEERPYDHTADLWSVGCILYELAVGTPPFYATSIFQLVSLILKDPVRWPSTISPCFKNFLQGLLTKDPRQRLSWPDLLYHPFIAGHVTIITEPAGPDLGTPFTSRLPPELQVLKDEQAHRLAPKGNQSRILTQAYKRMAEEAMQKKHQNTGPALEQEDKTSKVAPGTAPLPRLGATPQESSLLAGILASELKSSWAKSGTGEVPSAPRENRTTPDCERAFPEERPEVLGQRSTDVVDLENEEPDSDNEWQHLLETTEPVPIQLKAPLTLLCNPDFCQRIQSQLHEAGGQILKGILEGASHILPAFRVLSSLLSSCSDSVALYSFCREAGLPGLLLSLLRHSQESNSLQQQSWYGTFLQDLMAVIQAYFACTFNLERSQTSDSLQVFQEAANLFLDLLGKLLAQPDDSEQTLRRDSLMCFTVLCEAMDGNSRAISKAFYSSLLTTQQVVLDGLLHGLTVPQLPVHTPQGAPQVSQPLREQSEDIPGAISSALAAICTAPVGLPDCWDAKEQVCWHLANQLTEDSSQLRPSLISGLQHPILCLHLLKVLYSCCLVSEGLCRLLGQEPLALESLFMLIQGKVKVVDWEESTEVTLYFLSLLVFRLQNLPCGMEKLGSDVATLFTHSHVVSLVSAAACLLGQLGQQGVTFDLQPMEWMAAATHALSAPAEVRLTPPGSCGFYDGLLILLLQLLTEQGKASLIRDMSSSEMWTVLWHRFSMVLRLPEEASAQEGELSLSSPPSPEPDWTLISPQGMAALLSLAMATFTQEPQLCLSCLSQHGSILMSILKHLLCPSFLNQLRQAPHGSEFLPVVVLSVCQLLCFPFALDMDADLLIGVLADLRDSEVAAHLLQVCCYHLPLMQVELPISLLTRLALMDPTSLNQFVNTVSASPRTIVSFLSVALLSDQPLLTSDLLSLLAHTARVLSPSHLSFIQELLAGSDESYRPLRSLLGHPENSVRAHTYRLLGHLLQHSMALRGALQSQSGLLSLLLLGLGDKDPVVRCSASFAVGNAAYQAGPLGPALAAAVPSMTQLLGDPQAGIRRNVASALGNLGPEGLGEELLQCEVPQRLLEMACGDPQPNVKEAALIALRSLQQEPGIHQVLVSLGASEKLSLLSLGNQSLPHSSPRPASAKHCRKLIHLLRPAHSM
Sequence of UniProt Q8TF76 (whole entry, looked up): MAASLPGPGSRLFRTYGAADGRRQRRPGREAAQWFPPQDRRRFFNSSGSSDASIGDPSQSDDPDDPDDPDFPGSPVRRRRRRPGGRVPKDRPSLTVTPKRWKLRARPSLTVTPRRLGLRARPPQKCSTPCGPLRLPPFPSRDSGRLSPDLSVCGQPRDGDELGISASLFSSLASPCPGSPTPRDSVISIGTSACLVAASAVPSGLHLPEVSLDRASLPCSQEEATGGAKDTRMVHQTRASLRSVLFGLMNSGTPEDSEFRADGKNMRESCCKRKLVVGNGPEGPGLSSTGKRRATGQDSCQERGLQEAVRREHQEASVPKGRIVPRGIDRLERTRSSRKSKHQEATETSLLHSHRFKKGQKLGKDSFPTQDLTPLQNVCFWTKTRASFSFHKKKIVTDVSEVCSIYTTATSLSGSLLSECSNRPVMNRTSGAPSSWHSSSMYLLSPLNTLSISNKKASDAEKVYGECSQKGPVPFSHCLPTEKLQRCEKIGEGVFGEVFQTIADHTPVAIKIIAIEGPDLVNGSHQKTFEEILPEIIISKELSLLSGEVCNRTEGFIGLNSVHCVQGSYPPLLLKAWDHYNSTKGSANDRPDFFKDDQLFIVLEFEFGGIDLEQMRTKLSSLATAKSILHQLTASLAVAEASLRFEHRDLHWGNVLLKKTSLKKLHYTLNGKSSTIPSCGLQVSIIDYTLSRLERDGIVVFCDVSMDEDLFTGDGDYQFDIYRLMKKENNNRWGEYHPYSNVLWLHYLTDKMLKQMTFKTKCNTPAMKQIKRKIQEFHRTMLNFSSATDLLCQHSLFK

Study 1 — read-out: cell-free assay; technique: competition with immobilised ligand; tested at: 1 µM
SMILES: CC(=O)C1=C(C)N(c2cccc(C(F)(F)F)c2)C(=O)N[C@@H]1c1ccc(C#N)nc1
target	remaining binding [%]
Mitogen-activated protein kinase kinase kinase 15 (MAP3K15, Homo sapiens, UniProt Q6ZN16)	100
Myosin light chain kinase family member 4 (MYLK4, Homo sapiens, UniProt Q86YV6)	100
Mitogen-activated protein kinase kinase kinase 3 (MAP3K3, Homo sapiens, UniProt Q99759)	100
Serine/threonine-protein kinase 10 (STK10, Homo sapiens, UniProt O94804)	84.5
Serine/threonine-protein kinase/endoribonuclease IRE1 (ERN1, Homo sapiens, UniProt O75460)	100
Dual specificity mitogen-activated protein kinase kinase 4 (MAP2K4, Homo sapiens, UniProt P45985)	98.1
Tyrosine-protein kinase ABL1, non-phosphorylated (ABL1, Homo sapiens, UniProt P00519, F317L)	100
Non-receptor tyrosine-protein kinase TYK2, JH1 (TYK2, Homo sapiens, UniProt P29597)	91.3
Serine/threonine-protein kinase WNK3 (WNK3, Homo sapiens, UniProt Q9BYP7)	100
Ribosomal protein S6 kinase alpha-2, N-terminal kinase domain (RPS6KA2, Homo sapiens, UniProt Q15349)	72.8
Dual specificity tyrosine-phosphorylation-regulated kinase 1B (DYRK1B, Homo sapiens, UniProt Q9Y463)	100
RAC-beta serine/threonine-protein kinase (AKT2, Homo sapiens, UniProt P31751)	100
Hepatocyte growth factor receptor (MET, Homo sapiens, UniProt P08581, Y1235D)	100
Serine/threonine-protein kinase 36 (STK36, Homo sapiens, UniProt Q9NRP7)	100
Serine/threonine-protein kinase haspin (HASPIN, Homo sapiens, UniProt Q8TF76)	100

Study 2 — technique: RNA Bind-n-Seq; molecule type: RNA; sample: in vitro; tested at: 20 nM; setting: 6-mer, flanks averaged, single round; together with: 150 mM KCl; relative to: input library; direction: higher = stronger binding
Target: TAR DNA-binding protein 43, full length, His tag (TARDBP, Homo sapiens, UniProt Q13148, residues 1-414)
Strand	6-mer enrichment (R)
CGGAUA	0.792
CGGCGG	3.43
AAGGCG	1.52
UAAGGA	0.844
CGCAGU	0.816
UGCCGU	0.774
GUUUUA	0.681
GGCAGG	4.32

Study 3 — technique: RNA Bind-n-Seq; molecule type: RNA; sample: in vitro; tested at: 365 nM; relative to: no-protein control; direction: higher = stronger binding
Target: RNA binding protein fox-1 homolog 2, RRM domain, GST-SBP tag (RBFOX2, Homo sapiens, UniProt O43251-10, residues 100-194)
Setting: natural RNA segment, single round, ends assumed
Shared flanks, not repeated: GGGAGUUCUACAGUCCGACGAUC … UGGAAUUCUCGGGUGCCAA
Construct (chain): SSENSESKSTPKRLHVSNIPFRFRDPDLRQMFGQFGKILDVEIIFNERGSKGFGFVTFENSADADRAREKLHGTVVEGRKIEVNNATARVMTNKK
Strand	RBNS enrichment (R)
UCCCAUGGUGUCCUGGCUAUAUGACCUAAAAACCAGCCUUUCCUCCACAAGGCUUUGAGACACAUCCAGAGAUGAGGUGGUAUCAGACCUGUCCUUCCACACCAAAGACA	0.385
CAGCUUCCACAACUGCUUCAUCUCUGCCAACACUAAUUUUUCCCACACUGUCUUUGUACAUUUCAGAGCUUUGGUCUCCUGAGUGGGCCUCCUUUUCCCACUGUGCCAGG	0.647
UCUCCUUUUCCAGCAUCCCUAUCCUAUGGUGCUUUGGUGGUGAACUAUGGCAGUCCUGACUUGCUGAUGACCAUAUGCUGGUGACCUACAAAUCGGGAUCCUGCCAUAUG	1.01
UUUCUCUUUGGAAAGACUCAGGCUGUGGUUUGUUGAUGGCCAGGUUUUCCUCAGGCUCCAACAACUGUGCUUAUACCAAGCAGAUCCUCAUCCUCCAUAUAAUCAUCUUU	0.252
UCCUUGAGAUUACCCAAGUACCGUCAUGACCAAGAAGCCUUUCCGUCAUUGAGUACCUGAUUUUUAAAAGCAAGCACCCAAAUAAUUCUCUCUAGGGAAUCUCAUUUGUU	0.383
AAAACACUUAUAGCCUUAAACCAUUCAAGGGCUAAUUAAAAAAAUAGUUAUGAAAUCUUAGCCACAAAAAAUAAAUCAGGUAAACAUUUUAACCUGUCGUUAAGUGUUGU	1.2
GCUCUAAUCUGUAGAUCAAAAUGUAGAAGUUUGUGCAUUAUUAAGAGGAAAGUCUUGUGCCAAGAAUAGUUUAACUGGAAAGAUACUACCUGGAAUAUUAGAUGGAAAGC	1.73
CCUCAUCUGGAGUUUGAUGGUUUACAGAUGUCUGACAGUUCCUCAGCUCUUGUGCCAAGGAGGAGUGGUUGUUGUUGUUUUGUUUUGAAGACUUAAACUCUGCACAAAGA	2.14

Mixed results
SMILES	tested on	test	system	setting	quantity	result
Nc1cc(C(F)(F)F)c(-c2cc(N3CCOCC3)nc(N3CCOCC3)n2)cn1	–	AlphaScreen signal, AlphaScreen counter screen	His6 peptide without bromodomain	50 µM, assay interference check	inhibition	24.1%
COCC(=O)Nc1c(I)c(C(=O)NCC(O)CO)c(I)c(C(=O)N(C)CC(O)CO)c1I (mixture of isomers)	A-375	–	–	100 µM, 36 h	viability	90.1%
